Results from different studies.
Each numbered part is a random draw from the data of one study; scales do not carry over between parts. Changes are numbered by the printed parent chain.

Study 1 — target: CCNA2, cyclin fold, Cln2 fusion (human); technique: yeast growth competition, sequencing; medium: yeast; setting: strong parent motif; relative to: not given; reading: higher = stronger binding
Starting sequence: CDC25A docking peptide (human); PPHRRRLLFACSP
Change	normalised enrichment score
R4Q	2.02
P13Y	2.31
R5P	0.0228
R6F	1.47
P13R	2.01
P2V	2.18
P13A	2.54
A10Y	1.94
P13M	1.78
P2H	2.82
A10C	2.09
H3E	1.05
R5A	1.96
P13Q	2.26
S12P	2.28
F9Y	1.75
L8A	2.04
P1S	2.21
L7E	1.56
F9C	0.848
F9L	1.38
R5Q	1.11
H3I	4.46
L7M	1.27
R5I	1.77

Study 2 — technique: DHFR PCA, deep sequencing; medium: yeast; with: (+)-ABA 2500 µM; relative to: wild-type fitted maximum; reading: higher = stronger binding
Target: ABI1, truncated, D143A, DHFR fusion (Arabidopsis thaliana)
Setting: methotrexate growth selection, single substitutions
Starting sequence: PYL1, truncated, DHFR fusion (Arabidopsis thaliana); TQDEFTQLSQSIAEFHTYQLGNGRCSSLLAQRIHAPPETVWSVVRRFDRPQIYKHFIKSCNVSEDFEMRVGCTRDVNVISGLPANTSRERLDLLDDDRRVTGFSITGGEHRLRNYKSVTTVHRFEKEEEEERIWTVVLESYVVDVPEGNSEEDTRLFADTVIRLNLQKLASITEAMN; partner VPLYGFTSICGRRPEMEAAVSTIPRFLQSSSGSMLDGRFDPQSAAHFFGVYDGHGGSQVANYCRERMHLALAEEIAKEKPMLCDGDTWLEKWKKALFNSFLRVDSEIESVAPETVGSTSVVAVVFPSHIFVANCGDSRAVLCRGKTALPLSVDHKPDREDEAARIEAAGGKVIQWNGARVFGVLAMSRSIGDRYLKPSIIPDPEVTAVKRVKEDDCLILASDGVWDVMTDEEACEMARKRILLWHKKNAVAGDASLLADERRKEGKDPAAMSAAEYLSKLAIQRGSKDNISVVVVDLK
Change	relative binding score [%]
D48N	93.3
N114H	100
D75T	94
I57P	-1.59
I33H	-14.4
N165Y	70.1
W41P	-28.3
E89N	-8.19
E130T	103
Y18E	99.2
I12G	74.1
E125M	100
C60T	92
V143Q	85.6
R123C	99.6

Study 3 — target: UBE2R2 UBC core domain (UniProt Q712K3); technique: yeast two-hybrid; medium: yeast; setting: mostly zero background; relative to: not given; reading: higher = stronger interaction
B1: RNF115 RING domain (UniProt Q9Y4L5); chain TQEQVDMGLECPVCKEDYTVEEEVRQLPCNHFFHSSCIVPWLELHDTCPVCRKSLNGEDSTR
B2: TRIM74 RING domain (UniProt Q86UV6); chain SLLELEDWLQCPICLEVFKESLMLQCGHSYCKGCLVSLSYHLDTKVRCPMCWQVVDGSSSLP
B3: UBE4B RING domain (UniProt O95155); chain KNARAEIDYSDAPDEFRDPLMDTLMTDPVRLPSGTIMDRSIILRHLLNSPTDPFNRQTLTESMLEPVPELKEQIQAWMREKQNSDH
B4: TRIM68 RING domain (UniProt Q6AZZ1); chain LVEAIVEEVACPICMTFLREPMSIDCGHSFCHSCLSGLWEIPGESQNWGYTCPLCRAPVQPRNLRP
B5: MDM2 RING domain (UniProt Q00987); chain TQDKEESVESSLPLNAIEPCVICQGRPKNGCIVHGKTGHLMACFTCAKKLKKRNKPCPVCRQPIQMIVLTYFP
B6: RNF32 RING domain (UniProt Q9H0A6); chain VQALRRETHECSICLAPLSAAGGQRVGAGRRSREMALLSCSHVFHHACLLALEEFSVGDRPPFHACPLCRSCYQKKILEC
B7: RMND5B RING domain (UniProt Q96G75); chain MKCWYHSVFACPILRQQTSDSNPPIKLICGHVISRDALNKLINGGKLKCPYCPMEQNPADGK
B8: MARCHF2 RING domain (UniProt Q9P0N8); chain RLLSTVIRALDTPSDGPFCRICHEGANGECLLSPCGCTGTLGAVHKSCLEKWLSSSNTSYCELCHTEFAVEKRPRPLTEWL
B9: RNF130 RING domain (UniProt Q86XS8); chain DKETDPDFDHCAVCIESYKQNDVVRILPCKHVFHKSCVDPWLSEHCTCPMCKLNILKALGIV
Construct (chain): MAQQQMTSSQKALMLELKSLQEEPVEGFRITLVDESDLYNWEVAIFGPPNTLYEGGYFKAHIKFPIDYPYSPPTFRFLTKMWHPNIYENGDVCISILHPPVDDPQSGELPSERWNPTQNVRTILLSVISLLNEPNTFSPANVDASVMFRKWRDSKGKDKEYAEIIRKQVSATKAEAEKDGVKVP
Sequence	lacZ reporter activity
B1 (RNF115 RING domain)	0
B2 (TRIM74 RING domain)	0
KITELNPHLMCALCGGYFIDATTIVECLHSFCKTCIVRYLETNKYCPMCDVQVHKTRPLL (PCGF2 RING domain (UniProt P35227))	0
PLRRLQEEKLCKICMDRHIAVVFIPCGHLVTCKQCAEAVDRCPMCSAVIDFKQRVF (BIRC8 RING domain (UniProt Q96P09))	0
B3 (UBE4B RING domain)	0
B4 (TRIM68 RING domain)	0
B5 (MDM2 RING domain)	0
B6 (RNF32 RING domain)	0
B7 (RMND5B RING domain)	0
MEEMEEELKCPVCGSFYREPIILPCSHNLCQACARNILVQTPESESPQSHRAAGSGVSDY (TRIM9 RING domain (UniProt Q9C026))	0
B8 (MARCHF2 RING domain)	0
B9 (RNF130 RING domain)	0
VPADASPDSKCPICLDRFDNVSYLDRCLHKFCFRCVQEWSKNKAECPLCKQPFDSIFHSV (TOPORS RING domain (UniProt Q9NS56))	0

Study 4 — technique: aptamer microarray, sandwich; form: DNA with 2'F-ANA; medium: in vitro; tested at: 200 nM; with: Cy3 exosite-II aptamer, 400 nM; reading: higher = stronger binding; strand: GGTTGGTGTGGTTGG
Target: Prothrombin, mature alpha-thrombin (F2, Homo sapiens, UniProt P00734)
Setting: whole 15-mer aptamer, many near background
Modification	mean fluorescence intensity [a.u.]
2'F-ANA at 1 2 4 6 11 14 15	47.2
2'F-ANA at 5 6 8	83.5
2'F-ANA at 2 6 7 9 11 12 15	466
2'F-ANA at 1 3 5 9 13	48.8
2'F-ANA at 6 7 11 15	412
2'F-ANA at 1 2 4 10 11 14	44.6
2'F-ANA at 3 5 6 7 8 10 11 12 14 15	50.8
2'F-ANA at 8 9 11 12	793
2'F-ANA at 3 4 9 10 13 14	194
2'F-ANA at 1 3 5 7 8 9 10 11 12 13 14 15	78.9
2'F-ANA at 1 8 12 15	474
2'F-ANA at 2 4 6 8 9 10 12 13 14	72.3
2'F-ANA at 1 5 6 9 10 11 13	132
2'F-ANA at 1 3 4 6 7 8 9 11 12 14	75.9
2'F-ANA at 2 4 6 7 9 14 15	76.3
2'F-ANA at 1 2 3 10 11	75.4
2'F-ANA at 3 4 5 6 7 8 9 10 12 13 14 15	68.8
2'F-ANA at 3 4 6 7 8 13 15	527
2'F-ANA at 1 2 5 8 10 12 14	65
2'F-ANA at 3 4 5 6 12 14 15	114

Some of these lines once more (study 2):
Change	relative binding score [%]
E130T	103
Y18E	99.2
I12G	74.1
R123C	99.6
W41P	-28.3
N114H	100
D48N	93.3
I57P	-1.59
D75T	94
